Assay results collected from several papers.
Protocols differ between the studies behind these lines. ± marks the error that the study gave.
Tmem97: Sigma intracellular receptor 2 (Tmem97, Rattus norvegicus, UniProt Q5U3Y7)
Sequence of UniProt Q5U3Y7 (whole entry, looked up): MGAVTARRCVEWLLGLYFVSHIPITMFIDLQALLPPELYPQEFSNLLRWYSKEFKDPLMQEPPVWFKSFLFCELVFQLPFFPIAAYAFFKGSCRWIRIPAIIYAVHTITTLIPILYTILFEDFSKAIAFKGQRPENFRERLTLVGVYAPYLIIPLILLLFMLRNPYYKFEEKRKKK
MAOB: Amine oxidase [flavin-containing] B (MAOB, Homo sapiens, UniProt P27338)
Sequence of UniProt P27338 (whole entry, looked up): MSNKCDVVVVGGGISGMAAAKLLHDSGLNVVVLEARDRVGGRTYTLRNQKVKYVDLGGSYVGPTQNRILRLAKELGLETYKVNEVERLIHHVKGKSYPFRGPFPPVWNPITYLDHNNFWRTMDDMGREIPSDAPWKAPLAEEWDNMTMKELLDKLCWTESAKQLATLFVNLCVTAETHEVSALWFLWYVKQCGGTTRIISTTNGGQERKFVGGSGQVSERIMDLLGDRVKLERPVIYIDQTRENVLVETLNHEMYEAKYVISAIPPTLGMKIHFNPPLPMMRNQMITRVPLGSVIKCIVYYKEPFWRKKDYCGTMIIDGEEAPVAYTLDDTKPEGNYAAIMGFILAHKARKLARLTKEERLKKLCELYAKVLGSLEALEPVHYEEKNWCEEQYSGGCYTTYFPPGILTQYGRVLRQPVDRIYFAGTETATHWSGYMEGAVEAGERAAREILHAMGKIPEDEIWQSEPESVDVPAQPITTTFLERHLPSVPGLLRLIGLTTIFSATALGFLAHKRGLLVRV
TDP1: Tyrosyl-DNA phosphodiesterase 1 (TDP1, Homo sapiens, UniProt Q9NUW8)
Sequence of UniProt Q9NUW8 (whole entry, looked up): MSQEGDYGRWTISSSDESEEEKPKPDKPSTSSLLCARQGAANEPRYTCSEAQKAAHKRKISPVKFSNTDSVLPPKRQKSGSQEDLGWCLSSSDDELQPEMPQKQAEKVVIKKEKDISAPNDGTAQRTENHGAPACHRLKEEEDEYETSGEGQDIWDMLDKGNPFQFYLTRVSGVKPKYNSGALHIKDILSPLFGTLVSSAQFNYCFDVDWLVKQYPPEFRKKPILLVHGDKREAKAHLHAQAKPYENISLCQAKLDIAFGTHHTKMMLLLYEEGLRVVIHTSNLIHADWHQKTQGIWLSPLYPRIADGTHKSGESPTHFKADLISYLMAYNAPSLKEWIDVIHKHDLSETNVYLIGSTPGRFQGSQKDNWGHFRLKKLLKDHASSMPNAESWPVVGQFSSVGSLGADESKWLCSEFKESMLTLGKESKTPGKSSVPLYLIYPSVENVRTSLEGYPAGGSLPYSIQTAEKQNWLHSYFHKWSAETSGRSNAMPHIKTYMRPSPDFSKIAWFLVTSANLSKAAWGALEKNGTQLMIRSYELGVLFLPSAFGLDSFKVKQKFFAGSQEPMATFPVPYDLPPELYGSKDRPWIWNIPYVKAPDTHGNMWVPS
Sequence of UniProt Q8IAS0 (whole entry, looked up): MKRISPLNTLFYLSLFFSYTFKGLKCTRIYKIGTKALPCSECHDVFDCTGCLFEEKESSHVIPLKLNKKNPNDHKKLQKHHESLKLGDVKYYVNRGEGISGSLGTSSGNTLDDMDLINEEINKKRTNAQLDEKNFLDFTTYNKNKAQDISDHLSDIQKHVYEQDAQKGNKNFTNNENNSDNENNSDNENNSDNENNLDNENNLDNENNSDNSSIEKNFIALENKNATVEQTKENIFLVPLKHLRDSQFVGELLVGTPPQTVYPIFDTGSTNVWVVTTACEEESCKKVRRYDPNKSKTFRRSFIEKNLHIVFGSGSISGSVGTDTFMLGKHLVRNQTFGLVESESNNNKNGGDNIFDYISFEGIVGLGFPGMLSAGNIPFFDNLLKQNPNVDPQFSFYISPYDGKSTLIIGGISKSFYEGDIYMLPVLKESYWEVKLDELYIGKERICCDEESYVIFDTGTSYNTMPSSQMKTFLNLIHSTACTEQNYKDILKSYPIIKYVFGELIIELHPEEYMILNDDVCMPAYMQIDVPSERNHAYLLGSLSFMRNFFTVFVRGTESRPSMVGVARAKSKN
Sequence of UniProt P20309 (whole entry, looked up): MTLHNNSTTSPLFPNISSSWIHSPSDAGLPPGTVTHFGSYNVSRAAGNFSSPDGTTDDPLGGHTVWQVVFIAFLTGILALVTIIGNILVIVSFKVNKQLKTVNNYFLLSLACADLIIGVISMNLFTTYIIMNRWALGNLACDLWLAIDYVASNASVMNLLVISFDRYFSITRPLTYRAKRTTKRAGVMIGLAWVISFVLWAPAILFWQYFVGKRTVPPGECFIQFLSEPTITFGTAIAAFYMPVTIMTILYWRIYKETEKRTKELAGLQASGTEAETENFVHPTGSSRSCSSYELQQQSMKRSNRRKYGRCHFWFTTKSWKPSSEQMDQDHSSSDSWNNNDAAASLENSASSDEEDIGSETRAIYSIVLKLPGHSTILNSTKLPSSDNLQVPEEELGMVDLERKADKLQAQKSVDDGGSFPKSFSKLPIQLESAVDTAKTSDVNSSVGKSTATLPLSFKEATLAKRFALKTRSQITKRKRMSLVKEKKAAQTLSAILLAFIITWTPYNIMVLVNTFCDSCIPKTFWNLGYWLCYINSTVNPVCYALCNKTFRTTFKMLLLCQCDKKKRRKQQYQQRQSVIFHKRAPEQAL
Sequence of UniProt P22310 (whole entry, looked up): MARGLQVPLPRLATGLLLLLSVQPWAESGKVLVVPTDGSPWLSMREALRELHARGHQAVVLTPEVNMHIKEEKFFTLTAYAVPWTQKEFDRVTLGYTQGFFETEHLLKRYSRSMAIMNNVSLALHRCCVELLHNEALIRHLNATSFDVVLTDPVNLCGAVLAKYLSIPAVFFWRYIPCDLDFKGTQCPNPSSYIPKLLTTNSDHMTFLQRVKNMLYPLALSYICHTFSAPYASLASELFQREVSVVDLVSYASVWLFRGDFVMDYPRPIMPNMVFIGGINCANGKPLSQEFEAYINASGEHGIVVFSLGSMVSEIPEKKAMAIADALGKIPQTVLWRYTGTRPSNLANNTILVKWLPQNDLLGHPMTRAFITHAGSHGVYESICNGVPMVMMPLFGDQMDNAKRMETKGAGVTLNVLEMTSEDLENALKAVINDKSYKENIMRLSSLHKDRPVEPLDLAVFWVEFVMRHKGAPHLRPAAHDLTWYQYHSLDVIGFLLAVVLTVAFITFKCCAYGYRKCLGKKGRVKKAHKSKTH
Sequence of UniProt Q86U44 (whole entry, looked up): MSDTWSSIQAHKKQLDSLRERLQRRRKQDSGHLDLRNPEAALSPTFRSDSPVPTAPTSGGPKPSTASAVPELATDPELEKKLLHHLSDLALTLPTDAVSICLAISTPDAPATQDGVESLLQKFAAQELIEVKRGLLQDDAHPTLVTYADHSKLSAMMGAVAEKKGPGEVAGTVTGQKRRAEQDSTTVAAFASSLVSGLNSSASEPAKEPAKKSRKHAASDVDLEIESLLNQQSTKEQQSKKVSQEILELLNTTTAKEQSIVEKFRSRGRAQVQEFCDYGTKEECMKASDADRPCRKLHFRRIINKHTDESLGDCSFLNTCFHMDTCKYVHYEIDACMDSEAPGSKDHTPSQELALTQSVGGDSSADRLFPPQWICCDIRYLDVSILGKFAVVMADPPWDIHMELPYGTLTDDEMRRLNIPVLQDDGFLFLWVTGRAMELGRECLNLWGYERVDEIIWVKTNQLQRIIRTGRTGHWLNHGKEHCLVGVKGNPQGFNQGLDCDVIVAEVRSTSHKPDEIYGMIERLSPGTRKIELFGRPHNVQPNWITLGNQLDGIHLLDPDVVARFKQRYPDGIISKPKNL
Sequence of UniProt P11712 (whole entry, looked up): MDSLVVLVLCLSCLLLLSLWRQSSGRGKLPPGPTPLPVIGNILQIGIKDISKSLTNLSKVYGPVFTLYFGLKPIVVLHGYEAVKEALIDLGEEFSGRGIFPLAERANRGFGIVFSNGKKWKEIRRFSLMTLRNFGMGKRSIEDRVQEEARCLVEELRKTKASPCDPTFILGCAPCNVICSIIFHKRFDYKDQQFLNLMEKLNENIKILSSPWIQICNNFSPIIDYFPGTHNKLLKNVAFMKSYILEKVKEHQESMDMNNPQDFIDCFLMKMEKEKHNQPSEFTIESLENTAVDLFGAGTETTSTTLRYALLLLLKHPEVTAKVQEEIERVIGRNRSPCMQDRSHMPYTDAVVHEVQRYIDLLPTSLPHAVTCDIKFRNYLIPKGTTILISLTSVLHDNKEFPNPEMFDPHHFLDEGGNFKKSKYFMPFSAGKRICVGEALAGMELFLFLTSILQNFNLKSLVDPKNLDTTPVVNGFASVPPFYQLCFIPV
Sequence of UniProt P41145 (whole entry, looked up): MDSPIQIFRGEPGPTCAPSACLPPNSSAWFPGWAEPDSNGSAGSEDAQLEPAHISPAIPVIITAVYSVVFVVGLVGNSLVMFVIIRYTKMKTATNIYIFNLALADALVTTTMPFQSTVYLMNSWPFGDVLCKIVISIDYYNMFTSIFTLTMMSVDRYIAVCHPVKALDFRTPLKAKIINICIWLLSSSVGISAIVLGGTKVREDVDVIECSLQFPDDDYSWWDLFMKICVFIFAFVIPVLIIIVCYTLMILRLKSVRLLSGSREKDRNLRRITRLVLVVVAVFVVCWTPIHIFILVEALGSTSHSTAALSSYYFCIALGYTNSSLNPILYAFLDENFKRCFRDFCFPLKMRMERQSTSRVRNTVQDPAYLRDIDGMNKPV
Sequence of UniProt P41146 (whole entry, unmodified, looked up): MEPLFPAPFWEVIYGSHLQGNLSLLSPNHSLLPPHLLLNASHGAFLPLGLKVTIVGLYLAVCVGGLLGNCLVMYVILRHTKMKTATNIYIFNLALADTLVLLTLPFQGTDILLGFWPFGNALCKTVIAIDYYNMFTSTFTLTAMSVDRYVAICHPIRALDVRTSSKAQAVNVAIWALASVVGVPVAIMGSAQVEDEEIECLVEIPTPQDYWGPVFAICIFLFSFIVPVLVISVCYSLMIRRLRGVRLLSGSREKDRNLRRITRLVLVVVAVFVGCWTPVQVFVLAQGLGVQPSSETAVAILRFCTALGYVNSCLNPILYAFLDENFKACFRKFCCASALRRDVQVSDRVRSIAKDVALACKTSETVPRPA

The Ki of OC1Cc2ccccc2CC1N1CCC(c2ccc(Br)cc2)CC1 (racemic) is reported as 21 ± 1 nM (Tmem97; radioligand binding; rat liver; added: [3H]DTG, 1 µM dextrallorphan mask).
The Ki of O=C1c2cc(O)cc(O)c2C(=O)c2c(O)cc(CO)cc21 is reported as 14600 nM (MAOB; enzyme activity, inhibitor).
For CCC1(CC)CC(=O)N(C2CCOc3ccc(C(=O)NC4CC(C)(C)Oc5ccccc54)cc32)C(=N)N1 (stereo not drawn), the Ki was 0.01 nM (Plasmepsin X (Plasmodium falciparum, UniProt Q8IAS0); enzyme activity, inhibitor).
With COc1ccc(OC)c(C=NOCc2ccc3nc(-c4ccccc4)c(Nc4ccc(C(=O)O)cc4)n3c2)c1N (mixture of isomers) the inhibition was 19.4% (TDP1; enzyme activity, inhibitor; 100 µM, unpurified compound).
O=C(NCCCN1CCC2(CC1)OCc1ccccc12)C1CCCN1Cc1ccccc1 (stereo not drawn) gave a Ki of 0.5 nM (Nociceptin receptor (OPRL1, Homo sapiens, UniProt P41146, M134A)).
The Ki of CN(C)c1nc(NCc2ccc(Oc3ccccc3)cc2)c(/N=N/c2ccc(Cl)cc2)c(N(C)C)n1 is reported as 43.2 nM (Chitinase (OfChi-h, Ostrinia furnacalis, UniProt Q4AE59); enzyme activity, inhibitor, fluorescence).
With Cc1cc(O)c2c(c1)C(=O)c1cc(O)c(O)c(O)c1C2=O the Ki was 50200 nM (MAOB; enzyme activity, inhibitor).
O[C@@H]1Cc2cccc(OCCF)c2C[C@H]1N1CCC(c2ccccc2)CC1 gave a Ki of 2100 ± 1100 nM (Tmem97; radioligand binding; rat liver; added: [3H]DTG, 1 µM dextrallorphan mask).
For Cc1ccc(C(C=NOCc2ccc3nc(-c4ccccc4)c(Nc4ccc(C(=O)O)cc4)n3c2)=CN(C)C)cc1 (mixture of isomers), the inhibition was 48.6% (TDP1; enzyme activity, inhibitor; 100 µM, unpurified compound).
CCCC(=O)OC1CCC2(C)C(CCC3(C)C2CC=C2C4C(C)C(C)CCC4(C(=O)O)CCC23C)C1(C)C (stereo not drawn) has a Ki of 606 nM (UDP-glucuronosyltransferase 1A4 (UGT1A4, Homo sapiens, UniProt P22310); enzyme activity, inhibitor; human, liver microsomes).
CNC(=O)[C@@]12C[C@@H]1[C@@H](n1cnc3c(NCc4cccc(Cl)c4)nc(C#Cc4cccc(Cl)c4)nc31)[C@H](O)[C@@H]2O gave a Ki of greater than 10000 nM (Kappa-type opioid receptor (OPRK1, Homo sapiens, UniProt P41145); cell-free assay).
Nc1c(NCC[Se]C[C@H]2O[C@@H](n3cnc4c(N)ncnc43)[C@H](O)[C@@H]2O)c(=O)c1=O gave a Ki of 20 nM (N6-adenosine-methyltransferase catalytic subunit, with METTL14 (METTL3, Homo sapiens, UniProt Q86U44); inhibitor).
Cc1ccc(C2CCN(C3Cc4ccccc4CC3O)CC2)cc1 (racemic) gave a Ki of 59 ± 7 nM (Tmem97; radioligand binding; rat liver; added: [3H]DTG, 1 µM dextrallorphan mask).
For COc1ccc2c(c1OC)O[C@H]1c3ccc(O)cc3OC[C@@H]21, the Ki was 69600 nM (Cytochrome P450 2C9 (CYP2C9, Homo sapiens, UniProt P11712); enzyme activity, inhibitor; human, liver microsomes; 15 min).
Cn1ccc2c(N3CCN(CCCCOc4ccc5c(c4)NC(=O)CC5)CC3)cccc21 gave a Ki of 105 nM (Muscarinic acetylcholine receptor M3 (CHRM3, Homo sapiens, UniProt P20309); ligand displacement, radioligand).

Some of these lines once more:
For COc1ccc2c(c1OC)O[C@H]1c3ccc(O)cc3OC[C@@H]21, the Ki was 69600 nM (Cytochrome P450 2C9 (CYP2C9, Homo sapiens, UniProt P11712); enzyme activity, inhibitor; human, liver microsomes; 15 min).
